Results gathered from unrelated publications.
A part holds a random share of what one study measured.

Set 1
Target: Histone acetyltransferase KAT6A, winged helix 1, GST fusion (KAT6A, Homo sapiens, UniProt Q92794, residues 1-85)
Method: protein binding microarray
Form: double-stranded DNA, one strand shown
Medium: in vitro
Tested at: not given
Setting: 8-mer, flanks averaged, mean of 2 arrays, mostly near background
Reference: not given
Reading: higher = stronger binding
Construct (chain): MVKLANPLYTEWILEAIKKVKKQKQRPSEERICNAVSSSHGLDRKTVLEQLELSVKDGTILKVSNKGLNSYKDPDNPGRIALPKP
| Oligonucleotide | E-score |
| --- | --- |
| AGAGTCTG | -0.301 |
| CTGCCCGA | 0.0293 |
| ACGCAACG | 0.235 |
| TGTGTAAA | -0.108 |
| GACGGGTA | 0.329 |
| AGCCGACG | 0.446 |
| GAGTACTC | -0.117 |
| CTCAGTAC | -0.124 |

Set 2
Target: Phosphate system positive regulatory protein PHO4, full length, GST-tagged (PHO4, Saccharomyces cerevisiae, UniProt P07270, residues 1-312)
Method: competition protein-binding microarray
Form: double-stranded DNA, one strand shown
Medium: in vitro
Tested at: 2 µM
Setting: whole 60-bp probe, lowest competitor level
Together with: Cbf1 competitor, 0.05 µM
Reading: higher = stronger binding
Shared flanks, not repeated: … GTCTTGATTCGCTTGACGCTGCTG
Residues (chain): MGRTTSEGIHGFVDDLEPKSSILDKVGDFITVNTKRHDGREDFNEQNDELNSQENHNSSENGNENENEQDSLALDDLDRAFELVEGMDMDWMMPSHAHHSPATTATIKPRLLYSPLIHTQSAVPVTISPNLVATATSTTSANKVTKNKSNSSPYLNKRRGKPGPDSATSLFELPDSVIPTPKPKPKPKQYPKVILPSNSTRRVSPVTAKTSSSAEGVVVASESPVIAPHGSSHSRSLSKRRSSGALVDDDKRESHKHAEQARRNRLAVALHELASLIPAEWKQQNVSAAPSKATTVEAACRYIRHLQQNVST
| Oligonucleotide | fluorescence intensity [a.u.] |
| --- | --- |
| CGGGGTTAAGTTTGGTGAGTGGGTGGCTTGCAGCAG | 4970 |
| TAATTTTCAAACGACCACGCACCGCGAGAGAAAAGA | 7420 |
| AACGCCATGGCCTGTCACCTGATGCATTTATTCAAC | 5570 |
| CCCGCCCCGCTCGGTCACGTGAGCCTGGCTCTCACC | 9310 |
| GCGCGAAGTTTTGCTGACGTGCCAGTACCTGGGCCA | 4200 |
| ATATGGATTGATTTTCACATGTATCGTTTATGAGTA | 6830 |
| CCTTGATGGTTCCGTCACGGGAACCAGAGATAATCA | 5020 |
| GTAATTTCAATAGCTCGCGTGGCCGAATGGCAACGC | 7770 |

Set 3
Target: Sal-like protein 4, full length isoform B (SALL4, Homo sapiens, UniProt Q9UJQ4-2, residues 1-616)
Method: universal PBM
Form: double-stranded DNA, one strand shown
Medium: in vitro
Tested at: not given
Setting: 8-mer, flanks averaged, mean of replicates
Reading: higher = stronger binding
| Oligonucleotide | E-score |
| --- | --- |
| TAAGGACA | -0.0642 |
| AAAGACGA | 0.117 |
| AATGATGA | 0.263 |
| ACAATAAT | 0.426 |
| GGCCGATA | -0.0342 |
| TATGAGAA | 0.295 |
| AGCATCGC | -0.177 |
| AAATGTCT | 0.164 |

Other studies, line by line
| Molecule | target | test | system | setting | measurement | result |
| --- | --- | --- | --- | --- | --- | --- |
| MTDVDLNYY | HLA class I histocompatibility antigen, C alpha chain, allele C*04:01 (Homo sapiens, UniProt P10321) | peptide-MHC binding | peptide | concentration not given | binding | inactive |

For quick reference, copied from above (set 3):
| Oligonucleotide | E-score |
| --- | --- |
| ACAATAAT | 0.426 |
| GGCCGATA | -0.0342 |
| TATGAGAA | 0.295 |
